Experimental data of several laboratories.
Each line is one published result; not all experiments were run side by side. Several values in a cell are separate wells, animals, samples, runs or records. ± gives the spread as reported.

O=C(NCc1cc(F)cc(F)c1)[C@@]1(O)CCN(c2ccc3[nH]ccc3c2)C1=O  efficacy (CXF158; colony formation, soft agar clonogenic; colon tumour): 72%
C=C1CC2(C(=O)OC)C=C(C(=O)OC(C)(C)C)C(=O)C1C2 (centres unmarked)  luminescence relative to PMA (AP-1 reporter HEK293; AP-1 reporter gene, luciferase reporter; 3 µM, 6 h, together with: PMA 6 ng/mL; reference: PMA alone): 0.653
CC(C)c1ccc(N(C)c2ccc3c(c2)OCC[C@H]3CNc2cnccc2C(=O)O)cc1  IC50 (MDA-MB-361; cell viability, CellTiter-Glo; 7 days): ≥ 10 µM
COc1ccc(NC(=O)c2ccc3[nH]c(-c4ccc(N(C)C)cc4)nc3c2)cn1  dead cell to confluence ratio (HCT116; IncuCyte; concentration not given, 8 h): 22.5 and 32.2 and 7.7
COc1cccc(OC)c1-c1cc(C(=O)NC2(C(=O)O)C3CC4CC(C3)CC2C4)nn1-c1ccc(C(=O)N(C)CCCN(C)CCCN(C)C(=O)[C@H](CCCCNC(=O)[C@H](CC(C)C)NC(=O)C2OC2C(=O)O)NC(=O)CN2CCN(CC(=O)[O-])CCN(CC(=O)[O-])CCN(CC(=O)[O-])CC2)cc1C(C)C.[177Lu+3] (mixture of isomers)  adduct formation (HT-29; SDS-PAGE autoradiography; concentration not given, 4 h; reference: radioactive signal): 52.7%
CNS(=O)(=O)Nc1nccc(Cc2c(C)c3ccc(Oc4ncccc4F)cc3oc2=O)c1F  IC50 (NCI-H292; cell viability; 7 days): 0.000402 µM
COC(=O)c1cc(NC2=NC(=O)C(=Cc3ccc(N(C)C)cc3)S2)ccc1OC(C)=O  metabolite level (MCF7; GC-MS, measured: Tyrosine; 1 µM; reference: DMSO): -1.48 fold change
O=C(Nc1nnc2c1c(-c1ccc(Cl)cc1)nc1sc(=Cc3ccco3)c(=O)n12)c1ccccc1 (mixture of isomers)  cell growth (RXF 393; SRB; 10 µM, NCI60 single-dose screen; reference: untreated): 60.6%
CC(=O)OC[C@H]1O[C@@H](n2cc(CSc3nc4ccccc4n3Cc3cn([C@@H]4O[C@H](COC(C)=O)[C@@H](OC(C)=O)C(OC(C)=O)[C@H]4OC(C)=O)nn3)nn2)[C@H](OC(C)=O)C(OC(C)=O)[C@@H]1OC(C)=O (stereo in doubt)  cytotoxicity (Caco-2; MTT; 3.91 ppm): 52.4%
CO[C@@H]1[C@@H](OC(N)=O)[C@@H](O)[C@H](Oc2ccc3c(O)c(NC(=O)c4ccc(O)c(CC=C(C)C)c4)c(=O)oc3c2C)OC1(C)C  colony count (HCT-116 parental; 100 µM, replicate 2): 17
CCCCCCCCCCCCCCCCCCOc1ccccc1CCOP(=O)([O-])OCC[N+](C)(C)C  growth inhibition (NCI-H322M; SRB; 10 µM): < 0%
CCOc1cncc(-c2ccc(NC(=O)C3(c4ccnc(NS(=O)(=O)C5CC5)n4)CCOCC3)nc2)n1  IC50 (Caco-2; cell growth or viability, ATP luminescence; 72 h): 0.25 µM
CCN(C(=O)c1cc(F)ccc1Oc1nncnc1N1CCC2(C1)CN([C@H](CCCN(C)CCOC)C(C)C)C2)C(C)C  GI50 (THP-1; cell growth or viability; 72 h): > 10 µM
Cn1c(=O)n(C2CCC(=O)NC2=O)c2ccc(C3CCN(CC(=O)Nc4cccc(CS(=O)(=O)N5CC[C@H](Nc6cccc(-c7sc(C(=O)O)c(OCC(=O)O)c7Cl)c6)CC5(C)C)c4)CC3)cc21 (some centres unmarked)  fold change (B16-F10; HTRF, measured: phospho-STAT1 Tyr701; 3.3 µM, together with: IFN-γ; reference: DMSO): 5.83 and 5.56 and 6.1 and 5.59 and 5.67
Cc1cc(Cl)cc(-c2ccnc3cc(CN4C(=O)C5C(C4=O)C5(C)C)sc23)c1C[C@@H]1CNCCO1 (some centres unmarked)  viable cells (annexin V-/PI-) (CHP-212 parental (wild-type USP7); annexin V-PI flow cytometry; 0.1 µM, 48 h): 77.3% and 83.9% and 75.4%
[177Lu+3].[Cl-].[Cl-].[Cl-]  live cells (4T1; flow cytometry; 0.4 Bq/cell, 48 h): 72.8%
Cc1ncsc1-c1ccc(C(C)NC(=O)C2CC(O)CN2C(=O)C(NC(=O)CCCCCCCCCCN2CCCC(Nc3ncc(Cl)c(Nc4ccccc4S(=O)(=O)C(C)C)n3)C2)C(C)(C)C)cc1 (centres unmarked)  log2 fold change (22Rv1; RNA-seq, measured: RNF214 mRNA; concentration not given; reference: DMSO): -1.22
COc1ccccc1-c1ccncc1C(=O)Nc1nnc(OCc2ccc(Cl)cc2)s1  colony count (MDA-MB-436 BRCA1-mutant; 0.1875 µM): 18 and 17 and 16
Cn1ncc(-c2ccc3c(=O)[nH]nc(CN)c3c2)c1-c1c(F)c(Cl)cc(OC2CC2)c1C#N  IC50 (OCI-Ly3; cell viability, inhibitor, CellTiter-Glo; 120 h, baseline-subtracted): 0.7 µM
O=C1CC[C@H](N2Cc3cc(-c4ccn5ncc(Cl)c5n4)ccc3C2=O)C(=O)N1  log2 fold change (MOLM-13; protein level, TMT proteomics, measured: A2M; 1 µM, 6 h; reference: DMSO): 0.0271
CCN(CC)CC(=O)Nc1cccc(-n2cc(-c3ccc4ccc(-c5cn(-c6cccc(NC(=O)CN(CC)CC)c6)nn5)cc4c3)nn2)c1  fold regulation (RCC4; PCR angiogenesis array, measured: TIMP1; 5 x IC50, 6 h, normoxia; reference: untreated): -1.22 fold
[Cl-].[Cl-].[Ru+2].c1cc(-c2ccc3cccnc3n2)nc(-c2ccc3cccnc3n2)c1.c1ccc2cc3nc4c5cccnc5c5ncccc5c4nc3cc2c1  phototoxicity index (A-375; resazurin; together with: light 633 nm, 100 J/cm2; reference: dark EC50 over light EC50): 3
CN1CCCNC(=O)c2cccc(c2)C(=O)NCCCN(C)CCCNc2cccc3c2C(=O)c2cccc(c2C3=O)NCCC1  log2 fold change (SAS; RNA-Seq, measured: SAFB2 mRNA; 1 µM, 6 h; reference: untreated cells): 0.584
Cc1cc(C)nc(SCC(=O)Nc2ncc(Cc3cccc(OCc4cn(Cc5ccc(C#N)cc5)nn4)c3)s2)n1  inhibition (PC-3M-luc; cell viability, MTS; 10 µM): 33.8 ± 2.1%
CC(=O)NCCCN(C)CCCNc1cccc2c1C(=O)c1cccc(NCCCN(C)CCCNC(C)=O)c1C2=O  log2 fold change (SAS; RNA-Seq, measured: WRAP73 mRNA; 1 µM, 6 h; reference: untreated cells): -0.559
O=C(N1CCCC1)n1cc(-c2ccc(-c3ccccc3)cc2)nn1  SILAC ratio (mouse T-cells; N-terminal labelling enrichment, measured: S100A6 N-terminal peptides; 1 nM, 6 h, protein median; reference: DMSO): 1.07
CC(C)(COP(=O)(O)OP(=O)(O)OC[C@H]1O[C@@H](n2cnc3c(N)ncnc32)[C@H](O)[C@@H]1OP(=O)(O)O)[C@@H](O)C(=O)NCCC(=O)NCCSCCC(=O)N[C@@H](CO)C(=O)NCC(=O)N[C@@H](CCCNC(=N)N)C(=O)NCC(=O)N[C@@H](CCCCN)C(=O)NCCCC[C@H](NC(=O)CC[C@@H]1NC(=O)[C@@H](CCCNC(=N)N)NC(=O)[C@H](CCCNC(=N)N)NC(=O)[C@@H](CCCNC(=N)N)NC(=O)[C@H](CCCNC(=N)N)NC(=O)[C@H](Cc2csc3ccccc23)NC(=O)[C@@H](Cc2ccccc2)NC(=O)[C@H](Cc2ccccc2)NC1=O)C(N)=O  lowest effective concentration (A549; vimentin expression reduction, Western blot; 2 days): 0.1 µM
O=C(NCCCSc1ccc2c(/C=C/c3ccccn3)n[nH]c2c1)c1ccc(Cl)c(C(F)(F)F)c1  GI50 (Ba/F3 TEL-VEGFR1; cell growth, CCK-8): 0.35 µM
CN(C)c1ccc(-n2cc(COC(=O)[C@]3(C)C=C(C(=O)OC(C)(C)C)C(=O)CC3)nn2)cc1  luminescence (AP-1 reporter HEK293; AP-1 reporter gene, luciferase reporter; 3 µM, 6 h, together with: PMA 6 ng/mL; higher = more transcription): 4350 a.u.
CC(C)(C)c1cc(-c2ccc3cccnc3n2)nc(-c2ccc3cccnc3n2)c1.COc1ccncc1.[Cl-].[Cl-].[Ru+2].c1ccc2cc3nc4c5cccnc5c5ncccc5c4nc3cc2c1  EC50 (A-375; cytotoxicity, resazurin; dark): 64.6 µM
Cn1ncc2cc(-c3cncc(Cl)c3N3CCC4(CCNC4=O)CC3)ccc21  log2 fold change (LS174T; gene expression, microarray, measured: SLC2A4 mRNA; concentration not given, 4 h; reference: untreated cells): 1.53
CC#CC#C/C=C1/O[C@@]2(CCCCO2)[C@@H](O)[C@@H]1OC(C)=O  p38 phosphorylation (RAW264.7; Western blot; concentration not given, together with: LPS): decreased
CC(C)(C)c1cc(-c2ccc3cc4ccccc4nc3n2)nc(-c2ccc3cc4ccccc4nc3n2)c1.Cc1ccncc1.[Cl-].[Cl-].[Ru+2].c1ccc2cc3nc4c5cccnc5c5ncccc5c4nc3cc2c1  EC50 (A-375; resazurin; together with: light 633 nm, 20 mW, 100 J/cm2): 12.7 µM
COC(=O)c1cc(NC2=NC(=O)C(=Cc3ccc(C)cc3)S2)ccc1OC(C)=O  metabolite level (MCF7; GC-MS, measured: Cholesterol; 1 µM; reference: DMSO): 0.56 fold change
Cc1cc(C)nc(SCC(=O)Nc2ncc(Cc3cccc(OCc4cn(-c5ccc(Cl)cc5)nn4)c3)s2)n1  inhibition (PC-3M-luc; colony formation, colony forming; 25 µM): 42.4 ± 0.8%
